Measured values from different studies.
Lines come from different studies, so protocols differ. ± gives the spread as reported.

Under “fluorescence quantum yield”, `CCN(CC)c1ccc2c(c1)O[B-]1(c3c(C)cccc3C)OC(=O)C(c3ccccc3)=N[N+]1=C2` (stereo not shown) is recorded as 0.12 (toluene).
Under “fluorescence quantum yield”, `COc1ccc2nc(-c3ccc(N(C)C)cc3)sc2c1` is recorded as 0.055 (PBS; free dye).
`CCCCN1C(=O)c2cccc3c(NCCCCCCCCCCN4CCOCC4)ccc(c23)C1=O`: “fluorescence quantum yield” 0.75 (ethylene glycol).
`CN1CCN(c2ccc3[nH]c(-c4ccc5[nH]c(-c6ccc(OCCCCNC(=O)c7cccc8c7C(=O)OC87c8ccc(N(C)C)cc8[Si](C)(C)c8cc(N(C)C)ccc87)cc6)nc5c4)nc3c2)CC1`: “fluorescence quantum yield” 0.29 ± 0.11 (PBS; 1 µM, 2 h, room temperature, added: 20 µM hairpin DNA).
For `CN(C)c1ccc(/C=C/c2cc(=O)cc(/C=C/c3ccc(N(C)C)cc3)o2)cc1`, “fluorescence quantum yield” read 0.11 (acetonitrile/water 1:19 v/v; 10 µM, 298 K, aggregate nanoparticle suspension).
`CCN(CC)c1ccc2c(c1)O[B-]1(c3ccccc3)OC(=O)C(c3ccccc3)=N[N+]1=C2` (stereo not shown): “fluorescence quantum yield” 0.63 (toluene).
`O=c1cc(/C=C/c2ccc(N3CCOCC3)cc2)oc(/C=C/c2ccc(N3CCOCC3)cc2)c1`: “fluorescence quantum yield” 0.005 (acetonitrile; 10 µM, 298 K; reference: 9,10-diphenylanthracene in toluene).
`CCN(CC)c1ccc2c(c1)O[B-]1(c3ccccc3OC)OC(=O)C(c3ccccc3)=N[N+]1=C2` (stereo not shown) — result for “fluorescence quantum yield”: 0.58 (toluene).
`CN1CCN(c2ccc3[nH]c(-c4ccc5[nH]c(-c6ccc(OCCCCNC(=O)c7cccc8c7C(=O)OC87c8ccc(N(C)C)cc8C(C)(C)c8cc(N(C)C)ccc87)cc6)nc5c4)nc3c2)CC1`: “fluorescence quantum yield” 0.67 ± 0.03 (PBS with 0.1% SDS).
`CCC1=[N+]2N=C(/C=C/C=C/c3ccc(C(F)(F)F)cc3)C(=O)O[B-]2(c2ccccc2)Oc2cc(N(CC)CC)ccc21` (stereo not shown): “fluorescence quantum yield” 0.44 (toluene).
Under “fluorescence quantum yield”, `O=c1cc(/C=C/c2ccc(N3CCCC3)cc2)oc(/C=C/c2ccc(N3CCCC3)cc2)c1` is recorded as 0.011 (acetonitrile; 10 µM, 298 K; reference: 9,10-diphenylanthracene in toluene).
Under “fluorescence quantum yield”, `C=Cc1ccccc1[B-]12OC(=O)C(c3ccccc3)=N[N+]1=Cc1ccc(N(CC)CC)cc1O2` (stereo not shown) is recorded as 0.64 (toluene).
`Nc1ccc2cc(/C=C/C(=O)c3ccc(O)cc3)ccc2c1`: “fluorescence quantum yield” 2.4 ± 0.2% (toluene; reference: coumarin 153 in ethanol).
For `COC(=O)c1ccccc1-c1c2ccc(=O)cc-2oc2c1ccc1cccc(O)c12`, “fluorescence quantum yield” read 0.19% (12.5 mM aqueous NaOH; pH 12.1, 10% DMSO).
Under “fluorescence quantum yield”, `CCN(CC)c1ccc2c(c1)O[B-]1(c3ccccc3C)OC(=O)C(c3ccccc3)=N[N+]1=C2` (stereo not shown) is recorded as 0.65 (toluene).
`CCCCN1C(=O)c2cccc3c(NCCN4CCOCC4)ccc(c23)C1=O` — result for “fluorescence quantum yield”: 0.02 (ethylene glycol).
Under “fluorescence quantum yield”, `CN1CCN(c2ccc(/C=C/c3cc(=O)cc(/C=C/c4ccc(N5CCN(C)CC5)cc4)o3)cc2)CC1` is recorded as 0.004 (acetonitrile; 10 µM, 298 K; reference: 9,10-diphenylanthracene in toluene).
For `CCCCN1C(=O)c2cccc3c(NCCCCCN4CCOCC4)ccc(c23)C1=O`, “fluorescence quantum yield” read 1 (DMSO).
Under “fluorescence quantum yield”, `CC1(C)C(=CC=C2CCCC(C=CC3=[N+](CCC[N+](C)(C)C)c4ccc(S(=O)(=O)O)cc4C3(C)C)=C2SCCOCCOCCC(=O)O)N(CCC[N+](C)(C)C)c2ccc(S(=O)(=O)O)cc21` is recorded as 6.5% (PBS; pH 7.4).

Some of these lines once more:
Under “fluorescence quantum yield”, `COc1ccc2nc(-c3ccc(N(C)C)cc3)sc2c1` is recorded as 0.055 (PBS; free dye).
For `CN(C)c1ccc(/C=C/c2cc(=O)cc(/C=C/c3ccc(N(C)C)cc3)o2)cc1`, “fluorescence quantum yield” read 0.11 (acetonitrile/water 1:19 v/v; 10 µM, 298 K, aggregate nanoparticle suspension).
For `CCCCN1C(=O)c2cccc3c(NCCCCCN4CCOCC4)ccc(c23)C1=O`, “fluorescence quantum yield” read 1 (DMSO).
